Measured values gathered from unrelated publications.
A part holds a random share of what one study measured. Positions count from the first letter of the parent shown.

Sample 1
Target: Sal-like protein 4, full length isoform B (SALL4, Homo sapiens, UniProt Q9UJQ4-2, residues 1-616)
Method: universal PBM
Form: double-stranded DNA, one strand shown
Sample: in vitro
Tested at: not given
Setting: 8-mer, flanks averaged, mean of replicates
Reading: higher = stronger binding
Measurement: E-score
Residues (chain): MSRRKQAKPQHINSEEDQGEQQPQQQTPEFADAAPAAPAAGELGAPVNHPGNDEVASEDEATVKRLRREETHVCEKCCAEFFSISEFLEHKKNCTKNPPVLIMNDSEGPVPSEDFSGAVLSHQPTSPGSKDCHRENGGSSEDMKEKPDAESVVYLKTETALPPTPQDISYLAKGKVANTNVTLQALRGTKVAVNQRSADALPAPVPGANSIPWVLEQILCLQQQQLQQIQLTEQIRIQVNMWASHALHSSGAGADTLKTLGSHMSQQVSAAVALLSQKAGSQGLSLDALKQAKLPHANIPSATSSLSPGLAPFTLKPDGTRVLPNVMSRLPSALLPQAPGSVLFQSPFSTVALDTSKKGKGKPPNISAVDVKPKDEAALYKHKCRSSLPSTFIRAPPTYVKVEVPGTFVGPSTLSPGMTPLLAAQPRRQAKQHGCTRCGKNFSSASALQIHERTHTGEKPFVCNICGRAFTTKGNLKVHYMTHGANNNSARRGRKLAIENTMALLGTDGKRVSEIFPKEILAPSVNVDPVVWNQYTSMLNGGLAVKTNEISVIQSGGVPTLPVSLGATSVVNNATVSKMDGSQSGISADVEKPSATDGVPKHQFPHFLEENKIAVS
AGCTCGTG: -0.164
GCACGGCC: -0.361
TCACGACA: 0.056
AATGCAGG: -0.0516
GCCGTCAC: -0.119
ACCCCGTA: 0.0101
CCCCTTAC: -0.1
ATCACCAG: 0.0006
ATCATGGA: 0.0232
ATGCGATC: -0.0343
ATCGGCGC: -0.272
AACACCTA: 0.0643
CAGCCGCC: -0.405
AAGTGCAC: 0.0147
ACTACTAA: 0.183
AAGCTTAA: -0.0323
GACCATCC: -0.0897
ATGACGGG: -0.0968
GCCAGACC: -0.373

Sample 2
Target: Histone acetyltransferase KAT6A, both winged helices, GST fusion (KAT6A, Homo sapiens, UniProt Q92794, residues 1-181)
Method: protein binding microarray
Form: double-stranded DNA, one strand shown
Sample: in vitro
Tested at: not given
Setting: 8-mer, flanks averaged, mean of 2 arrays, mostly near background
Baseline: not given
Reading: higher = stronger binding
Measurement: E-score
Construct (chain): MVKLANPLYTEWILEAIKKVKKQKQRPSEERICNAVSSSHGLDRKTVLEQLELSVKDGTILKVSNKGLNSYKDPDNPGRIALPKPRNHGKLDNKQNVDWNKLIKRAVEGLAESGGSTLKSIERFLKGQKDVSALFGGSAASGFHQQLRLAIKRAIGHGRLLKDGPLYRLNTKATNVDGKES
AACGAAAA: -0.00543
ACGTGGAG: -0.226
ATCATACC: 0.0221
CGCTGCCG: 0.312
ATGGCATC: -0.161
CATAACGG: 0.144
CCACCTAC: -0.234
AGGGAATA: -0.125
CTTGTTGC: -0.107
ACAGTTAC: 0.00182
CCCGAACA: -0.00607
AGGCACCC: -0.039
AATCAAAA: -0.106
CTAGAACA: 0.0786
ATCCGGAA: 0.142
AGTGATGC: -0.121
GGGCCTCA: 0.0592
CCTTCAAA: -0.0687
AAACACCT: -0.1

Sample 3
Target: Ras GTPase-activating protein-binding protein 1, RRM domain (G3BP1, Homo sapiens, UniProt Q13283)
Sequence of UniProt Q13283 (whole entry, looked up): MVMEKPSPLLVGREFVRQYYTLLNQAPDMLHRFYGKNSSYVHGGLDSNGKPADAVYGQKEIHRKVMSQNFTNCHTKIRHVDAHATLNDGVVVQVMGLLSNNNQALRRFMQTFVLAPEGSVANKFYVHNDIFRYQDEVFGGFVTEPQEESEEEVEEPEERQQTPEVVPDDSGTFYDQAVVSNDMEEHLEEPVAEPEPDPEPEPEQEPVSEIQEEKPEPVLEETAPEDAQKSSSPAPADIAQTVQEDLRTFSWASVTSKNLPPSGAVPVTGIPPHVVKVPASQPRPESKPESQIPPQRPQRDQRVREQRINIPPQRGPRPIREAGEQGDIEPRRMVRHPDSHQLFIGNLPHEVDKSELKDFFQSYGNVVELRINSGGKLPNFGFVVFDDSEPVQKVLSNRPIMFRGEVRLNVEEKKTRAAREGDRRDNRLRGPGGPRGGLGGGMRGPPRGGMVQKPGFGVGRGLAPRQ
Method: RNA Bind-n-Seq
Form: RNA
Sample: in vitro
Tested at: 1 µM
Setting: whole 134-nt RNA, ends assumed
Together with: 150 mM KCl
Baseline: input library
Reading: higher = stronger binding
Measurement: log2 enrichment
All sequences stand within: GGGAGUUCUACAGUCCGACGAUC … UGGAAUUCUCGGGUGUCAAGG
UCAAGUCCUGUGCUACACAUCGUAUGUACCGAAUCGGAAAGGUGGAAAAAAAGGAAAGUAUUAUGUUACGCCGUUCGGAUCUGCACUUCC: -0.107
AGUCCUGUGCUACACAUCGUAUGUACCGAAUCGGGGUUUUUGGGGAGGGGUUUGGGGAAAGUAUUAUGUUACGCCGUUCGGAUCUGCACU: 0.741
CACAGACAACACGCACACACACAGACACAGAGGGAAGGGGUUGGGAUGGGGACAGGGUGCACAGCAGGGCGGGGUAGGACCCCAGCCCCU: 0.345
UCAAGUCCUGUGCUACACAUCGUAUGUACCGAAUCGGAGGUUUUUUUGGUUUGGAAAGUAUUAUGUUACGCCGUUCGGAUCUGCACUUCC: -0.409
UCAAGUCCUGUGCUACACAUCGUAUGUACCGAAUCGGUUGGGGUUGGGUUGGGGAAAGUAUUAUGUUACGCCGUUCGGAUCUGCACUUCC: 0.461
CCUGUGCUACACAUCGUAUGUACCGAAUCGGAAAAAAAGGAAAAAAAGGGGAAAAAAAGGGAAAGUAUUAUGUUACGCCGUUCGGAUCUG: -0.0266
UCCUGUGCUACACAUCGUAUGUACCGAAUCGGUUUUUUUGGUUUUUUUGGAAAAAAAGGAAAGUAUUAUGUUACGCCGUUCGGAUCUGCA: -0.207
CAAGUCCUGUGCUACACAUCGUAUGUACCGAAUCGGCCCCGGCCCCGGGCCCCGGAAAGUAUUAUGUUACGCCGUUCGGAUCUGCACUUC: -1.24
UAUAUUGAGGUAUAGAGCUAUUCUUUGUAGGUACCCUGGUGAGACCGAUACAAAUAUGCCCCUCCCCAUAAUGGAAUACUAAUUUUUAUU: -0.28
CCUCAAGUCCUGUGCUACACAUCGUAUGUACCGAAUCGGGAGGGAGGGGAGGAAAGUAUUAUGUUACGCCGUUCGGAUCUGCACUUCCAG: -0.0616
CCUGUGCUACACAUCGUAUGUACCGAAUCGGGGUUUGGGGUUUUUGGGGAAAAAAAGGGGAAAGUAUUAUGUUACGCCGUUCGGAUCUGC: 1.2
UGGACGAUGAAGAGGAAACAAUUGAAGAGGAGGAAGCAAAUGAAGGCGUUGUGGACCACCAAACAGAACUUUCUAAUUUAGCCAAGGAAG: -0.0753
GUCCUGUGCUACACAUCGUAUGUACCGAAUCGGGUUUUGGGGUUUUGGGGUUUUGGGGAAAGUAUUAUGUUACGCCGUUCGGAUCUGCAC: 0.401
UAACUUUAGAGGAGGAUCUGAUGGAUAUGGAAGUGGACGUGGAUUUGGGGAUGGCUAUAAUGGGUAUGGAGGAGGACCUGGAGGUGGCAA: -0.742

Sample 4
Target: CCND2, cyclin fold, Cln2 fusion (human)
Method: yeast growth competition, sequencing
Sample: yeast
Setting: weak parent motif
Baseline: not given
Reading: higher = stronger binding
Measurement: normalised enrichment score
Starting sequence: PKN2 docking peptide (human); DSTVTKLDFDLEP; partner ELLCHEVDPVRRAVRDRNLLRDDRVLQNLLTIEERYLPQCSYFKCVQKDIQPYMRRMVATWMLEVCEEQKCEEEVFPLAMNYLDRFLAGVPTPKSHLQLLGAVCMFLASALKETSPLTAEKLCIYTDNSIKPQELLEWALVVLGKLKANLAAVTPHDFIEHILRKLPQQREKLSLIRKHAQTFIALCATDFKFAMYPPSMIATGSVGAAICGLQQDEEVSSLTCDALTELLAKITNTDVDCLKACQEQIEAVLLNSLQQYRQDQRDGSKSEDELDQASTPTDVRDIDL
ASTVTKLDFDLEP [D1A]: 0.224
DSAVTKLDFDLEP [T3A]: 0.133
DSTVTKLDFDLEA [P13A]: 0.0888
DSTVAKLDFDLEP [T5A]: 0.583
DSTVTKLDFALEP [D10A]: 0.13
DATVTKLDFDLEP [S2A]: -0.106

Sample 5
Target: RNA binding protein fox-1 homolog 2, RRM domain, GST-SBP tag (RBFOX2, Homo sapiens, UniProt O43251-10, residues 100-194)
Method: RNA Bind-n-Seq
Form: RNA
Sample: in vitro
Tested at: 365 nM
Setting: natural RNA segment, single round, ends assumed
Baseline: no-protein control
Reading: higher = stronger binding
Measurement: RBNS enrichment (R)
All sequences stand within: GGGAGUUCUACAGUCCGACGAUC … UGGAAUUCUCGGGUGCCAA
Construct (chain): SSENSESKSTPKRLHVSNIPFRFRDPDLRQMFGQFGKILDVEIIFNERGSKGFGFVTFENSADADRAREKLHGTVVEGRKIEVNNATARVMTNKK
GCCAUUAUUUUGACGCCUUUUUGUUUUCUUUUUGAAAAACAAAAUAUUAUUCCCCUGCUUCAUGGCUGAAAUAAAAGGUGAUGGUAACUGGGGGCACCCCCUCUCCCUGG: 0.483
UCCCUCCACACUUCCACUUUGUCCUCCUCGUCCCCUACCUCAACAAAGCAGGGUGGGGUAGGUGACAUUUGUGUAUCCACAUUCUUACCUUUGGUAGUCAGGUUUGGCUA: 1.19
AAAUUUUCCUUAGGCCGCAGAAAUCCUGCACUGUGAGCAUUUCAGAAGAGGUAUGUGAGACCCAGUUCAACGACAGCAUGAUUUUUUAAAUGGCUGUAAGUUAUGAUAAG: 0.673
UUAUACUAUAAAUUCAGUGAUGGCAAGAACCAACACUGUUUUUUUGUGAGAAUUGUCAGUGUAACUAUUACCUACCAGUAUUGUUCAGAGAGAUUGAAACAGAAUAAACG: 0.341
CCUUCUAUUCCUUGUCCCCUCCCUGAGUUAGCUGGGCCUUGGUUCUGGGUCCCUGAGCAGGAGGAGGAGCUGUGAACAAGUCAGACCAAUAAAACCAGGUUUGCACUGCC: 0.469
GUUUCGAAUAUGCAGAUGGCCUUGGAGCCUUAAGACAGGUGCCGGGCUGGCUGCAGACAGGGUGGCUGAGGGGAGGGGCAAUCGAGUCCCGAGUCCUUGGCUUAGCAUGG: 7.36
GCAGGAAUCCCUUCCCAUCUGCUUUGUGAAGGGUCCCAUACAGGUGUAUCUAGACUUCAAGGACAGGGUUUGUCUCACAGGAUUGUCACUUAGGAGAUGAAAGAAUAUUA: 0.308
AUGGUAUUUCAUUAAACUGUUGCAUACCCAGUUAGCACAGUAGGUGGGGAGUCUGCUUCAUUUCUAUCAUUCCAUUUUUCUGAUUAAACUGUCAAAUCUGUCAUUGCAUA: 0.852
UGGAAAAUUAAACUUUAAUUUAUUGACAUUGUACAUAGCUCUGUGUAAAUAGAAUUGCAACUGUCAGGUUUUGUGUUCUUGUUUUCCUUUAGUUGGGUUUAUUUCCAGGU: 0.402
UUUUUAACAUAUUUUAUUUCUGCAGAGGAUAUUGGUAACUUACCAAAGAGAAGCAAUACACAGUAUGUCUGCUUUAGCCUUCUUUUAUUUAUCUCAUCUGCAGAUGUUGA: 0.469
CCCCGCCCAGCUUAUCAACUCGUCCCCUCUUCCACACCUUCCCAGCAUCACAGUCAGAGGUCAGCAGGAAGCUGAGUCAUUACCUUCUUGGUGACCUCCCCCACCAUCUU: 0.876
CCAUUAAUAGUUUCUGGUUGACCAUUUGAACAUGUAUUAACUUAGGAAGACUAAUUGCCAAUAACGUCUGCAUUUUCAUCUUGCAUGGAUUAACAGCCAUUUAUAUGGAC: 0.463

Sample 6
Target: Phosphate system positive regulatory protein PHO4, full length, GST-tagged (PHO4, Saccharomyces cerevisiae, UniProt P07270, residues 1-312)
Method: competition protein-binding microarray
Form: double-stranded DNA, one strand shown
Sample: in vitro
Tested at: 2 µM
Setting: whole 60-bp probe, lowest competitor level
Together with: Cbf1 competitor, 0.05 µM
Reading: higher = stronger binding
Measurement: fluorescence intensity
All sequences stand within: … GTCTTGATTCGCTTGACGCTGCTG
Construct (chain): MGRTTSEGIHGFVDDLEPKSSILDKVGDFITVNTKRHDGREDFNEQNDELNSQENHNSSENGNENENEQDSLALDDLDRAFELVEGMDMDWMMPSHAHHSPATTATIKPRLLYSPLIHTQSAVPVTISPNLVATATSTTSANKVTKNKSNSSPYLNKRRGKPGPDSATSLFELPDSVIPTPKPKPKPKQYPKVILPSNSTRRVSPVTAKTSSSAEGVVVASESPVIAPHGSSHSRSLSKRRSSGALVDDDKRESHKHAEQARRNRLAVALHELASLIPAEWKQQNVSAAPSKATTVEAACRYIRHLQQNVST
ATCGCTTATCGCTGTCATGTGACAGTTAATTGAAAT: 7820 a.u.
CGGGGTTAAGTTTGGATAGTGGGTGGCTTGCAGCAG: 4500 a.u.
CTGAGCAAATTCTGTGACCTGCAATTTTACTTGTTC: 2970 a.u.
TAGCTGCTCCATTAAGGCGTGATGGACTATGGAGAG: 7100 a.u.
AGATGATTAAGACATCTCGTGGAGGAATCATCATCT: 8250 a.u.
AAATTACTAAGTTGTCACTAAACTTACCCCGTATGA: 3090 a.u.
TTGGAAAGTGGCGATCTTGTGACGGTCAACGATGAT: 3950 a.u.
AAAGCGGTAATTTGTGGCGTGGGTGCAGATATCTAT: 7160 a.u.
TCGCGCCCTGTCAGGAACATGATGTCCGCCATTTGA: 4900 a.u.
ATGGGGGCATAATCGCACGATGTGCAAGCTGAGTGT: 13300 a.u.
CATACCCAACCTTGCGGAGTGGGTGAAGATATTTGT: 4330 a.u.
TGCGCAACAACTTTTCACGTGCAGTTATGTCTAGAA: 14500 a.u.
GTCTTGTCTCATTGAATTGTGGGTGTCCCCACTTCA: 4810 a.u.
CTAACGAAGGTTTTTCACGTGAACTACAAGCCAAGT: 9430 a.u.
TTACCCGGTACGAGTCACGTGATGGAGGTGCATTGG: 13500 a.u.
CTTTCCCGATCTTGCGAAGTGGGTGTAGCACATTTG: 4780 a.u.
AAAGCGGTAATTTGGAGAGTGGGTGCAGATATCTAT: 4340 a.u.
CTTTCCCGATCTTGTACGGTGGGTGTAGCACATTTG: 4320 a.u.

Some of these lines once more (sample 1):
CAGCCGCC: -0.405
AAGTGCAC: 0.0147
ACTACTAA: 0.183
AAGCTTAA: -0.0323
GACCATCC: -0.0897
ATGACGGG: -0.0968
